Results from different studies.
Parts stem from different laboratories: compare values within a part only. “And” joins repeats or separate records; there may be more than shown.

Series 1
Compound: CN(C(=O)c1cnn2cccnc12)c1cc2c(cc1N1CCOCC1)C(=O)N(C[C@@H](F)C(C)(C)O)C2
JAK1: Tyrosine-protein kinase JAK1 (JAK1, Homo sapiens, UniProt P23458)
JAK2: Tyrosine-protein kinase JAK2 (JAK2, Homo sapiens, UniProt O60674)
Sequence of UniProt O60674 (whole entry, looked up): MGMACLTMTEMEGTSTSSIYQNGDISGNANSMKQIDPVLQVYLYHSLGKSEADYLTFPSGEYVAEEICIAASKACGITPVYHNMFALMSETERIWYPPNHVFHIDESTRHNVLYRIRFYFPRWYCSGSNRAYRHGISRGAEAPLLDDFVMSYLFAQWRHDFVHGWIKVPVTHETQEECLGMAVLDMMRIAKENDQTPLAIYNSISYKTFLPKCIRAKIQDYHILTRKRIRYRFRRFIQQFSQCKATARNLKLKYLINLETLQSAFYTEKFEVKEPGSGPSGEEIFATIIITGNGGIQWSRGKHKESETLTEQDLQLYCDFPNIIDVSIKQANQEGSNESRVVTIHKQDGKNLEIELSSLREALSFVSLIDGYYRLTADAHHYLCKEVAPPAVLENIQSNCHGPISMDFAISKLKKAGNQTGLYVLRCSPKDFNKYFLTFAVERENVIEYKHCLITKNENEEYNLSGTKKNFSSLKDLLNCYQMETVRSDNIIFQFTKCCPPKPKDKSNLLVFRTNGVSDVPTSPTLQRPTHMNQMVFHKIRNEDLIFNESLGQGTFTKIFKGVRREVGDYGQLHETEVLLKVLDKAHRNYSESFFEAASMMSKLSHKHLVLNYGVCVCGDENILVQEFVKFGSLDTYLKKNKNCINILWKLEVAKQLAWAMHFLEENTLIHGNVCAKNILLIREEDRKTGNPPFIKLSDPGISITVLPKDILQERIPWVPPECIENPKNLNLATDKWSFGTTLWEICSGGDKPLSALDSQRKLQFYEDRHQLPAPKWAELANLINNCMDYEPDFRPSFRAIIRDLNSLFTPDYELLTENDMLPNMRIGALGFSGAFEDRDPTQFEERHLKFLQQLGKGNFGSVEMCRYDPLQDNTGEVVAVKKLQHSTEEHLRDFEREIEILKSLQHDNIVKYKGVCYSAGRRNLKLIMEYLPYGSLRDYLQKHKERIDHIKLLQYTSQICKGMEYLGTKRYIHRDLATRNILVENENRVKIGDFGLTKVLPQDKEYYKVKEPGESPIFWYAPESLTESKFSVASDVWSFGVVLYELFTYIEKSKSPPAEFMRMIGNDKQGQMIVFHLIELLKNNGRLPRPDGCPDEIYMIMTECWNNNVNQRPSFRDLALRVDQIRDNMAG
For JAK1; target engagement in cells, BRET: EC50 read greater than 50 µM.
It gave greater than 50 µM for EC50 (JAK2; target engagement in cells, BRET).
The EC50 was 2.7 µM and 2.68 µM and 5.42 µM (Receptor-type tyrosine-protein kinase FLT3 (FLT3, Homo sapiens, UniProt P36888); target engagement, NanoBRET; live cells).
It gave greater than 50 µM for EC50 (JAK2; target engagement, NanoBRET; live cells).
Leucine-rich repeat serine/threonine-protein kinase 2 (LRRK2, Homo sapiens, UniProt Q5S007); target engagement, NanoBRET; live cells — EC50: greater than 50 µM.
For JAK1; target engagement, NanoBRET; live cells: EC50 read greater than 50 µM.

Series 2 — species: mouse; sample: microsomes or S9; tested at: 2 µM; time: 0.5 h
For `CS(=O)(=O)N1CCN(CCCOc2ccc3c(c2)C(=O)C(c2cnc4ccccc4c2)=C3c2ccc(F)cc2F)CC1`, the remaining compound was 69.8%.
For `CC(=O)N1N=C(Cn2nc(C)cc2C)OC1c1ccccc1OCc1cccc(Br)c1` (centres unmarked), the remaining compound was 56.8%.
For `Cc1ccccc1-c1noc(-c2cc3c(COC(=O)C(C)C)cnc(C)c3oc2=O)n1`, the remaining compound was 39.4%.
The remaining compound of `Nc1ccc(-c2ccc(S(=O)(=O)c3cccc(N)c3)cc2N)cc1` is reported as 5.5%.
For `Cc1nn(CCc2nn[nH]n2)c(C)c1Br`, the remaining compound was 23.9%.
`CC(C)(C)CNCCn1c(=S)[nH]c2c(Cl)nccc21` has a remaining compound of greater than 99%.

Series 3 — cell line: mouse MPNST tumor cells; technique: high-content nuclear imaging; measured: cell number; tested at: 10 µM; time: 12 h; setting: mean of 2 replicates; reference: plate mean; direction: higher = more cells
`Nc1nc(N)c2nc(-c3cccc(Cl)c3)c(N)nc2n1` gave a nuclei count of -1.11 z-score.
With `O=C([C@@H](Cc1cccc(C(F)(F)F)c1)NS(=O)(=O)c1cc(F)c2c(c1)CCNC2)N1CCCC1` the nuclei count was 2.43 z-score.
For `CCCc1c(-c2ccc(O)cc2)nn(-c2ccc(O)cc2)c1-c1ccc(O)cc1`, the nuclei count was 1.77 z-score.
For `CCOc1ccc(NC(=S)N2CCC(C(O)(c3ccccc3)c3ccccc3)CC2)cc1`, the nuclei count was 3.63 z-score.
For `CC(C)NCC(O)COc1ccc(CC(N)=O)cc1` (centres unmarked), the nuclei count was 3.21 z-score.

Series 4 — effect on: enzyme activity; mode: inhibitor; tested at: 77 µM; reference: untreated
Target: DNA polymerase theta, ATPase domain (POLQ, Homo sapiens, UniProt O75417)
Sequence of UniProt O75417 (whole entry, unmodified, looked up): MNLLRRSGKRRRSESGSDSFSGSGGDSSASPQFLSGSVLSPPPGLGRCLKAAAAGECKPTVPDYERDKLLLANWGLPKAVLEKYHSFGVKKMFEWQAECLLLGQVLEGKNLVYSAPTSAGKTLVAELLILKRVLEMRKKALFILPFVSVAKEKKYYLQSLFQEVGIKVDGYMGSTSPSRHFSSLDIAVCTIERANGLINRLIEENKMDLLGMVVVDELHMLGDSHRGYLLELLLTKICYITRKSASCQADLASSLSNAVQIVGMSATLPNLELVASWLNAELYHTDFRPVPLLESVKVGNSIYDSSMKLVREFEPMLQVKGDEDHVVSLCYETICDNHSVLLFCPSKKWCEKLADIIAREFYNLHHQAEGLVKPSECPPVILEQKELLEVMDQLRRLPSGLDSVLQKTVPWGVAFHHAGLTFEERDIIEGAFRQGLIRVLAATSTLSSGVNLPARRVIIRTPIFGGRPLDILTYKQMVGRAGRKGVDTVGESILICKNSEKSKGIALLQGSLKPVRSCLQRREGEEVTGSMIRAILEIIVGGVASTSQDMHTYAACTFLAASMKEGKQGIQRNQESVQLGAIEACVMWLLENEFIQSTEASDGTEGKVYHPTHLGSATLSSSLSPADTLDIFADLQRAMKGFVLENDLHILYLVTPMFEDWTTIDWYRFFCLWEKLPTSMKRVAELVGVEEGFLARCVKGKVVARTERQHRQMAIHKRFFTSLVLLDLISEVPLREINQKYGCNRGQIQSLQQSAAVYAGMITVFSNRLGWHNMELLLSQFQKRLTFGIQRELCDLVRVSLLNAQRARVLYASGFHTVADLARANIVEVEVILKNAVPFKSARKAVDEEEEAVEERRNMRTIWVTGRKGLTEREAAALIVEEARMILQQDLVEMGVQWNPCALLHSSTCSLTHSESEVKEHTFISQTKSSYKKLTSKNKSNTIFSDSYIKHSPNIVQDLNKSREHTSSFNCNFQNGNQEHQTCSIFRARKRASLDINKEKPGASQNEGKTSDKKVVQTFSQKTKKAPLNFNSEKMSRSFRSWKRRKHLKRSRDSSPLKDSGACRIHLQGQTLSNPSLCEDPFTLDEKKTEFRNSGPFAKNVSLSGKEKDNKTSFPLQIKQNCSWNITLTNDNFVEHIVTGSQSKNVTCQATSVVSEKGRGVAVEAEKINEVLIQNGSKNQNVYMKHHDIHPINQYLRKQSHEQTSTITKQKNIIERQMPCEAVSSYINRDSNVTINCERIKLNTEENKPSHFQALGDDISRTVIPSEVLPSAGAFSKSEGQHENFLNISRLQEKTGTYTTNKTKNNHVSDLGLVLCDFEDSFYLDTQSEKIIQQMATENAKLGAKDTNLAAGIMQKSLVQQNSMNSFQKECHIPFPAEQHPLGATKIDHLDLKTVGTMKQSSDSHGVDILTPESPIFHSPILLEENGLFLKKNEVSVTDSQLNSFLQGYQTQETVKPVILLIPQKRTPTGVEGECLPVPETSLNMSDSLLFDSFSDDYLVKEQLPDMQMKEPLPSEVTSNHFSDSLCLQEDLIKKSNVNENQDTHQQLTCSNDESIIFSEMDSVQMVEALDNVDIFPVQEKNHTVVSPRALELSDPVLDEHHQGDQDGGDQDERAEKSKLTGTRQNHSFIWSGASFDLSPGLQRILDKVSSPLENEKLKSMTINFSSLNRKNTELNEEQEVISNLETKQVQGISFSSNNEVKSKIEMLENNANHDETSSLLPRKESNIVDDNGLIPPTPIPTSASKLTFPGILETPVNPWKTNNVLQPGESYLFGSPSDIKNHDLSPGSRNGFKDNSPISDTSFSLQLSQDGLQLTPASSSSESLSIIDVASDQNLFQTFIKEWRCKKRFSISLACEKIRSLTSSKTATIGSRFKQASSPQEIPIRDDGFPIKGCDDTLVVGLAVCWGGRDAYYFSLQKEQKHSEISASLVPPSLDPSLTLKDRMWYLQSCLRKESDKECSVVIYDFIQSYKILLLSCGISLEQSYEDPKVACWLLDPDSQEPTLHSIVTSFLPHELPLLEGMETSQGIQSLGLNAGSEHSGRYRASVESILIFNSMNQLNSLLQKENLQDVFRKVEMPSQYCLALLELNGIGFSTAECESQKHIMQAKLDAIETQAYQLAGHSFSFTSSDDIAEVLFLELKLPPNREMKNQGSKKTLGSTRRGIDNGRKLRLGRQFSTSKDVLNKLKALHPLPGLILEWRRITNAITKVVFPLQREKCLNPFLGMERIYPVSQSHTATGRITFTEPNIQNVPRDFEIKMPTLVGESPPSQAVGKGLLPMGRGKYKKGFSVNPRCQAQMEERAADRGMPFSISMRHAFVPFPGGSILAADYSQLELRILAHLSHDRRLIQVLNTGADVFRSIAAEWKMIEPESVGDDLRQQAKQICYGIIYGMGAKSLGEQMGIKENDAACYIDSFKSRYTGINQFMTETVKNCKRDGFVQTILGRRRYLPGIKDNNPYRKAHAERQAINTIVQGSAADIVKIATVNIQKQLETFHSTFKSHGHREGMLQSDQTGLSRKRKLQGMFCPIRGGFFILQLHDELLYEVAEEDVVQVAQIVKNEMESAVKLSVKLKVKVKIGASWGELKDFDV
`Cc1cc2cc3c(C)cc(=O)oc3c(C)c2o1` has a remaining activity of 104%.
For `COc1ccccc1Oc1c(NS(=O)(=O)c2ccc(C(C)(C)C)cc2)nc(-c2ncccn2)nc1OCCO`, the remaining activity was 77% and 97%.
With `CNC(=O)[C@H]1O[C@@H](n2cnc3c(NCc4cccc(I)c4)nc(Cl)nc32)[C@H](O)[C@@H]1O` the remaining activity was 113%.
`N#Cc1cc(CN2CCC(Nc3ncnc4sc(Cl)cc34)CC2)ccc1F` has a remaining activity of 104%.
`COc1ccccc1-c1cc(Nc2cccc(CS(N)(=O)=O)c2)ncn1` has a remaining activity of 97%.
The remaining activity of `Nc1ccc(S(=O)(=O)c2ccc(N)cc2)cc1` is reported as 99.8%.

Excerpt of the above (series 1):
Leucine-rich repeat serine/threonine-protein kinase 2 (LRRK2, Homo sapiens, UniProt Q5S007); target engagement, NanoBRET; live cells — EC50: greater than 50 µM.
For JAK1; target engagement, NanoBRET; live cells: EC50 read greater than 50 µM.
